Measured values of several laboratories.
Each numbered part is a random draw from the data of one study; scales do not carry over between parts.

Sample 1
Target: Runt-related transcription factor 3, Runt domain (RUNX3, Homo sapiens, UniProt Q13761, residues 53-186)
Sequence of UniProt Q13761 (53-186, looked up): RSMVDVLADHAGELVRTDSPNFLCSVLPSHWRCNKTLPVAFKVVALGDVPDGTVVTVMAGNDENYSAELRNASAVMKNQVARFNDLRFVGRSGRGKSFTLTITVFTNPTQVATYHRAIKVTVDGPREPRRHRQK
Technique: protein-binding microarray
Molecule type: hairpin DNA
Matrix: in vitro
Concentration: not given
Notes: whole hairpin DNA, median over replicate spots
Relative to: not given
Direction: higher = stronger binding
With `CTCAGTTCTGTGTGCTGGACTCCTGTCCAGCACACAGAACTGAGACACTC` the median fluorescence was 3880 a.u.
`CTCAGTTCAGTGGGCTGGACTCCTGTCCAGCCCACTGAACTGAGACACTC` gave a median fluorescence of 3920 a.u.
`GAGGCCTGTTGTGGTCGGCCTCCTGGCCGACCACAACAGGCCTCACACTC (5mC at 16)` has a median fluorescence of 5360 a.u.
The median fluorescence of `GAGGCCTGTTGTGGGTGGCCTCCTGGCCACCCACAACAGGCCTCACACTC` is reported as 4810 a.u.
`CTCAGTTCTGTGGGCTGGACTCCTGTCCAGCCCACAGAACTGAGACACTC (5mC at 15)` gave a median fluorescence of 4240 a.u.
For `GAGGCCTGTTGTGCGTGGCCTCCTGGCCACGCACAACAGGCCTCACACTC (5mC at 14)`, the median fluorescence was 4670 a.u.
`GAGGCCTGTGGCGGTTGGCCTCCTGGCCAACCGCCACAGGCCTCACACTC (5mC at 35)` gave a median fluorescence of 5960 a.u.
`CTCAGTACTGTGGGCTGGACTCCTGTCCAGCCCACAGTACTGAGACACTC` has a median fluorescence of 3950 a.u.

Sample 2
Target: Prothrombin, mature alpha-thrombin (F2, Homo sapiens, UniProt P00734)
Technique: aptamer microarray, sandwich
Molecule type: DNA with 2'F-ANA
Matrix: in vitro
Concentration: 200 nM
Notes: whole 15-mer aptamer, many near background
With: Cy3 exosite-II aptamer, 400 nM
Direction: higher = stronger binding
Strand: GGTTGGTGTGGTTGG
Under “mean fluorescence intensity”, `2'F-ANA at 1 4 5 6 9 10 11 13 14 15` is recorded as 62.2 a.u.
For `2'F-ANA at 1 2 3 5 6 11 14`, “mean fluorescence intensity” read 47.2 a.u.
`2'F-ANA at 1 2 3 5 7 8 9 11 13 14 15`: “mean fluorescence intensity” 98.6 a.u.
`2'F-ANA at 1 3 5 6 8 9 10 13 15` — result for “mean fluorescence intensity”: 74.7 a.u.
For `2'F-ANA at 3 6 7 9 11 12 13`, “mean fluorescence intensity” read 900 a.u.
Under “mean fluorescence intensity”, `2'F-ANA at 3 5 8 11 13 15` is recorded as 99.8 a.u.
For `2'F-ANA at 3 4 5 8 12 13`, “mean fluorescence intensity” read 133 a.u.
Under “mean fluorescence intensity”, `2'F-ANA at 2 5 9 10 12 13 14` is recorded as 139 a.u.

Sample 3
Target: Sal-like protein 4, full length isoform B (SALL4, Homo sapiens, UniProt Q9UJQ4-2, residues 1-616)
Technique: universal PBM
Molecule type: double-stranded DNA, one strand shown
Matrix: in vitro
Concentration: not given
Notes: 8-mer, flanks averaged, mean of replicates
Direction: higher = stronger binding
Target sequence (chain): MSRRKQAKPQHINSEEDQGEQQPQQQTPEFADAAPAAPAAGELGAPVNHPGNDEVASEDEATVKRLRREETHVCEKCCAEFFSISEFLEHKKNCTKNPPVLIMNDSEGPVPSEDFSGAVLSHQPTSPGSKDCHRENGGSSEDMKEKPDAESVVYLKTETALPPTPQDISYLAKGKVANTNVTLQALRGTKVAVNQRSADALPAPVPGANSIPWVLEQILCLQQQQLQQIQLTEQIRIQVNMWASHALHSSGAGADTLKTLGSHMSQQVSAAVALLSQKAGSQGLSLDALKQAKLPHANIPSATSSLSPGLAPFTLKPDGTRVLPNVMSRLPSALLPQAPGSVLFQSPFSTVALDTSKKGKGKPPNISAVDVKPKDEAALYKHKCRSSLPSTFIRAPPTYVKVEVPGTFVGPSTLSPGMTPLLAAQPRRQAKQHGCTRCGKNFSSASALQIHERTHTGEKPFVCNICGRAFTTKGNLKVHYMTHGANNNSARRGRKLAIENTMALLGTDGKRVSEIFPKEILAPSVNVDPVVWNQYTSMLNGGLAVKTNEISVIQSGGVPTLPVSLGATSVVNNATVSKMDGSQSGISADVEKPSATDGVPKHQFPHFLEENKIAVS
`GTCTTATA` gave an E-score of 0.289.
`ACTATCGA` has an E-score of 0.0291.
The E-score of `CCAGTCTA` is reported as -0.261.
`AAAGTGGT` has an E-score of -0.0703.
For `GTCCCGCA`, the E-score was -0.223.
For `AATCGGTA`, the E-score was 0.104.
`AGATACTA` gave an E-score of 0.0524.
The E-score of `CGGCGCGC` is reported as -0.291.

Mixed results
`CC(C)S(=O)(=O)c1ccc(CC(=O)NCC(O)Cn2ccccc2=O)cc1` (stereo not shown) has a remaining compound of 0.195% (human, microsomes or S9; 2 µM, 0.5 h).

Some of these lines once more (sample 3):
For `AATCGGTA`, the E-score was 0.104.
For `GTCCCGCA`, the E-score was -0.223.
